# Measurements of several laboratories.
# Each numbered part is a random draw from the data of one study; scales do not carry over between parts. Substitutions count along the parent as printed.
# Chain of UniProt Q9UBX1 (whole entry, looked up): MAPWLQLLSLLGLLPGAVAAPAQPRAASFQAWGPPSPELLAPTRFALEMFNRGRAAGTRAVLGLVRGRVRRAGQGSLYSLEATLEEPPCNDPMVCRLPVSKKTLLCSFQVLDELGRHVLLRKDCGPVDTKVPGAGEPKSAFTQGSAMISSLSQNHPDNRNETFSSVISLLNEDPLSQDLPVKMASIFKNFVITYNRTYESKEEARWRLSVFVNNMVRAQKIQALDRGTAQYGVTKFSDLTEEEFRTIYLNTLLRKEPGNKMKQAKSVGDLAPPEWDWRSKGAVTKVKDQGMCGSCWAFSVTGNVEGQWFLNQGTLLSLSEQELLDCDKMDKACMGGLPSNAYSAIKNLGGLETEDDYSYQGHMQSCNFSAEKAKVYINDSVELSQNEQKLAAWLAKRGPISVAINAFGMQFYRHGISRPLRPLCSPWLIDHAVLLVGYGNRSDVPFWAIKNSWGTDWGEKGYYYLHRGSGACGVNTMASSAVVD

# Study 1
# Target: CCNE1, cyclin fold, Cln2 fusion (human)
# Technique: yeast growth competition, sequencing
# Sample: yeast
# Setting: strong parent motif
# Relative to: not given
# Direction: higher = stronger binding
# Parent: viral docking peptide; TSVRRALFTGGSD; partner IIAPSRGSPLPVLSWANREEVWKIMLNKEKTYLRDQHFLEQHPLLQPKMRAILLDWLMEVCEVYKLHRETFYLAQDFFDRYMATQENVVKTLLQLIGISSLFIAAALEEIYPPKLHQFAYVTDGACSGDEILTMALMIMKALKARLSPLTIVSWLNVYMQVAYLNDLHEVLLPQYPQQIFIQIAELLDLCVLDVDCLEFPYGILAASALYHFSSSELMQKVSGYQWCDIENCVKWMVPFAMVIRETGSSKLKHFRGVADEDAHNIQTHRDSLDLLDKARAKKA
Variant,normalised enrichment score
TSVRRALFTEGSD [G10E],6.73
TSVRRALFTVGSD [G10V],5.15
TSVRHALFTGGSD [R5H],0.424
TSVRPALFTGGSD [R5P],0.0874
TSVRRAFFTGGSD [L7F],0.0758
TSVGRALFTGGSD [R4G],-0.0996
TLVRRALFTGGSD [S2L],3.51
TSVRRALFHGGSD [T9H],5.7
TSFRRALFTGGSD [V3F],2.94
TSVRRALFRGGSD [T9R],5.42
TSWRRALFTGGSD [V3W],2.1
TSVRRALFEGGSD [T9E],4.39
TEVRRALFTGGSD [S2E],3.91
TSVRRALFTMGSD [G10M],4.81
TNVRRALFTGGSD [S2N],5.9
TSVDRALFTGGSD [R4D],-0.0772
TSVRRALFTGDSD [G11D],6.61
TAVRRALFTGGSD [S2A],3.75
TSVRRALTTGGSD [F8T],-0.051
TSVRRALFTGSSD [G11S],5.74
TSVRRALFTGGRD [S12R],4.76

# Study 2
# Target: UBE2D2 UBC core domain (UniProt P62837)
# Chain of UniProt P62837 (whole entry, looked up): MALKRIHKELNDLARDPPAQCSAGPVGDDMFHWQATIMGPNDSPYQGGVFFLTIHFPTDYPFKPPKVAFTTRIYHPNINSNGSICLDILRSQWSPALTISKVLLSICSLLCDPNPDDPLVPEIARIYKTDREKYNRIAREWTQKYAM
# Technique: yeast two-hybrid
# Sample: yeast
# Setting: mostly zero background
# Relative to: not given
# Direction: higher = stronger interaction
# B1: ANAPC11 RING domain (UniProt Q9NYG5); chain GICRMAFNGCCPDCKVPGDDCPLVWGQCSHCFHMHCILKWLHAQQVQQHCPMCRQEWKFKE
# B2: TRIM54 RING domain (UniProt Q9BYV2); chain SMDNLEKQLICPICLEMFSKPVVILPCQHNLCRKCANDVFQASNPLWQSRGSTTVSSGGRFRCPSCRHEVVLDRHGV
# B3: RNF187 RING domain (UniProt Q5TA31); chain ALPAGPAEAACALCQRAPREPVRADCGHRFCRACVVRFWAEEDGPFPCPECADDCWQRAVEP
# B4: RNF152 RING domain (UniProt Q8N8N0); chain ETLSQDSLLECQICFNYYSPRRRPKLLDCKHTCCSVCLQQMRTSQKDVRCPWCRGVTKLPPGFS
# B5: DEF8 RING domain (UniProt Q6ZN54); chain AGRLGCSLTEIHTLFAKHIKLDCERCQAKGFVCELCREGDVLFPFDSHTSVCADCSAVFHRDCYYDNSTTCPKCARLSLRK
# B6: TRIM31 RING domain (UniProt Q9BZY9); chain FVNKLQEEVICPICLDILQKPVTIDCGHNFCLKCITQIGETSCGFFKCPLCKTSVRKNAIRF
# B7: TRIM60 RING domain (UniProt Q495X7); chain ALVNLQEESSCPICLEYLKDPVTINCGHNFCRSCLSVSWKDLDDTFPCPVCRFCFPYKSFRR
Sequence,lacZ reporter activity
QVQSRTKIEECVVCSDKKAAVLFQPCGHMCACENCANLMKKCVQCRAVVERRVPFI (MIB1 RING domain (UniProt Q86YT6)),0
B1 (ANAPC11 RING domain),0
B2 (TRIM54 RING domain),0
B3 (RNF187 RING domain),0
B4 (RNF152 RING domain),2400
B5 (DEF8 RING domain),0
YCEMGSTFQLCKICAENDKDVKIEPCGHLMCTSCLTAWQESDGQGCPFCRCEIKGTEPII (CBLB RING domain (UniProt Q13191)),0
B6 (TRIM31 RING domain),0
MNDVLENELQCIICSEYFIEAVTLNCAHSFCSYCINEWMKRKIECPICRKDIKSKTYSL (RNF8 RING domain (UniProt O76064)),0
B7 (TRIM60 RING domain),0

# Study 3
# Target: HLA class I histocompatibility antigen, A alpha chain, allele A*25:01 (Homo sapiens, UniProt P04439)
# Effect on: peptide-MHC binding
# Form: peptide
# Tested at: concentration not given
Sequence,binding
MELSLRAIQ,inactive
YFYYNAFHWAI,inactive
FLNPVIYTF,inactive
NRDVSFQDL,inactive
YLQYSISTA,inactive
FTGWRDPGL,inactive
RIYDPLWFQ,inactive
GMWCVLASR,inactive
SMNYPNSYK,inactive
SQLPPACPV,inactive

# Other studies, line by line
# B8: cystatin C; sequence looked up; chain SSPGKPPRLVGGPMDASVEEEGVRRALDFAVGEYNKASNDMYHSRALQVVRARKQIVAGVNYFLDVELGRTTCTKTQPNLDNCPFHDQPHLKRKAFCSFQIYAVPWQGTMTLSKSTCQDA
Sequence,target,effect on,tested at,measurement,value
B8 (cystatin C),"Cathepsin F (Homo sapiens, UniProt Q9UBX1)",enzyme activity,0.1 µM,inhibition,20%

# Some of these lines once more (study 3):
Sequence,binding
MELSLRAIQ,inactive
YFYYNAFHWAI,inactive
FLNPVIYTF,inactive
NRDVSFQDL,inactive
